Published values collected from several papers.
Compare with care: the assays were run in different laboratories.

| SMILES | test | test system | setting | scale | measurement | value |
| --- | --- | --- | --- | --- | --- | --- |
| O=C(O)CN1CCN(CC(=O)O)CCN(C(CCC(=O)NCc2ccc(NC(=S)NCCNC(=O)CCCc3ccc(I)cc3)cc2)C(=O)O)CC1 (centres unmarked) | dynamic PET/CT | Sprague-Dawley rats female, cisterna magna | intracisternal infusion, median |  | Tmax | 30 min |
| NC(=O)c1cnc2[nH]ccc2c1NC1C2CC3CC1CC(OS(=O)(=O)O)(C3)C2 (centres unmarked) |  | Japanese adults, moderate hepatic impairment, plasma | oral, 150 mg single dose |  | Tmax (median) | 90 min |
| O=c1nc(NO)ccn1[C@@H]1O[C@H](CO)[C@@H](O)[C@H]1O |  | male Wistar rats, plasma | oral, 30 mg/kg | relative to: CFA-arthritic over normal rats | Tmax ratio | 1.8 fold |
| Cn1cc(C(N)=O)c(NC2C3CC4CC2CC(OS(=O)(=O)O)(C4)C3)c2ccnc1-2 (centres unmarked) |  | Japanese adults, moderate hepatic impairment, plasma | oral, 150 mg single dose |  | Tmax (median) | 180 min |
| CCCC(CCC(=O)O)NC(=O)c1ccc2c(c1)OCO2 (centres unmarked) |  | female Sprague-Dawley rat, plasma | oral, 20 mg/kg of parent drug |  | Tmax | 26.4 min |
| N[C@@H](COc1ccccc1C(F)(F)F)c1ccccc1 |  | male Sprague-Dawley rat | intravenous, 5 mg/kg |  | Tmax | 10.8 min |
| Cc1ccc(OCC(=O)O)cc1 |  | Sprague-Dawley rat, female, plasma | oral, 10 mg/kg/day of parent drug, day 1, 90-day repeated dosing |  | Tmax | 60 min |
| CCCC(CCC)NC(=O)c1ccc(OS(=O)(=O)O)c(OC)c1 |  | female Sprague-Dawley rat, plasma | oral, 200 mg/kg of parent drug |  | Tmax | 52.8 min |

Excerpt of the above:
| SMILES | test | test system | setting | scale | measurement | value |
| --- | --- | --- | --- | --- | --- | --- |
| O=c1nc(NO)ccn1[C@@H]1O[C@H](CO)[C@@H](O)[C@H]1O |  | male Wistar rats, plasma | oral, 30 mg/kg | relative to: CFA-arthritic over normal rats | Tmax ratio | 1.8 fold |
